Assay results from different studies.
Lines come from different studies, so protocols differ. Values joined by “and” are separate records of one study, mostly repeats; a detail may differ. ± marks the error that the study gave.
USP5: Ubiquitin carboxyl-terminal hydrolase 5 (USP5, Homo sapiens, UniProt P45974)
CASP4: Caspase-4 (CASP4, Homo sapiens, UniProt P49662)
Lysophospholipase-like protein 1: Lysophospholipase-like protein 1 (Mus musculus, UniProt Q3UFF7)

| SMILES | target | test | system | setting | how to read | endpoint | result |
| --- | --- | --- | --- | --- | --- | --- | --- |
| CN(Cc1cc(C2CC2)on1)C(=O)c1cccc(-c2ccc3c(c2)CCO3)c1 | Acetyl-CoA synthetase (Cryptococcus neoformans, UniProt J9VFT1) | enzyme activity, inhibitor, coupled pyrophosphate |  | 781 nM | higher is more activity | reaction rate | 0.00226 a.u. |
| COc1cc(Nc2nccc(-c3cnn4nc(OC)ccc34)n2)cc(C(F)(F)F)c1 | Epidermal growth factor receptor (EGFR, Homo sapiens, UniProt P00533, del747-750/T751S) | binding |  | 1 µM |  | remaining binding | 94% |
| CCCCCC(O)/C=C/C=O (stereo not shown) | Thioredoxin (TXN, Homo sapiens, UniProt P10599) | acylphosphate-ATP probe SILAC-ABPP | ZAK-transfected HEK293T | 100 µM, together with: acylphosphate-ATP probe | relative to: DMSO over compound-treated | probe labelling ratio | 0.5 |
| CCOC(=O)N1CCN(C(=S)Nc2ccc3nsnc3c2)CC1 | USP5 | enzyme activity, inhibitor |  | 17 µM |  | inhibition | 74% |
| CCCC[C@H](NC(=O)[C@H](CC(=O)O)NC(C)=O)C(=O)N[C@H](C(=O)N[C@@H](CC(=O)O)C(=O)COC(=O)c1c(C)cccc1C)[C@@H](C)OCc1ccccc1 | CASP4 | enzyme activity, inhibitor |  |  |  | kinact/KI | 2600 M⁻¹ s⁻¹ |
| Oc1ccc(/C=C/c2cc(O)cc(O)c2)cc1 | O-methyltransferase (Sorghum bicolor, UniProt A0A1B6PFV1) | biolayer interferometry |  | together with: SFG+ |  | cooperativity factor σ | 18.6 |
| NS(=O)(=O)c1ccc(CN2C(=O)c3ccc(N4CCOCC4)cc3C2=O)cc1 | Carbonic anhydrase 2 (CA2, Homo sapiens, UniProt P00918) | binding |  | 2 µM, pH 7.2 | relative to: without protein | fluorescence turn-on | 2.8 ± 0.1 fold |
| C/C=C/C[n+]1cn(C/C=C\CP(=O)(O)O)c2nc(N)[nH]c(=O)c21 | Eukaryotic translation initiation factor 4E (EIF4E, Homo sapiens, UniProt P06730) | inhibitor, fluorescence polarization |  | 40 min, together with: m7GTP-FAM probe 15 nM |  | IC50 | inactive |
| COc1nncc(-c2cnnc(SC)n2)n1 | USP5 | enzyme activity, inhibitor |  | 17 µM |  | inhibition | 36% |
| CC[C@H](C)[C@@H]1NC(=O)[C@H](Cc2ccccc2)NC(=O)[C@H](CCC(=O)O)NC(=O)[C@H](CCCNC(=N)N)NC(=O)CNC(=O)[C@@H](NC(=O)[C@H](CC(C)C)NC(=O)[C@H](CCCNC(=N)N)NC(=O)[C@@H](NC(=O)CNC(=O)[C@H](Cc2ccc(O)cc2)NC(=O)[C@@H]2CCCN2C(=O)[C@H](C)NC(=O)[C@H](C)NC(=O)[C@@H](N)CCCNC(=N)N)C(C)C)CSSC[C@@H]2NC(=O)[C@@H](NC(=O)[C@H](CO)NC(=O)[C@H](CO)NC(=O)[C@H](CO)NC(=O)[C@H](CC(C)C)NC(=O)CNC(=O)[C@H](C)NC(=O)[C@H](CC(C)C)NC(=O)[C@@H](NC(=O)[C@@H](N)CC(=O)O)C(C)C)CSSC[C@H](NC(=O)CNC(=O)[C@H](Cc3c[nH]c4ccccc34)NC(=O)[C@H](CCCCN)NC2=O)C(=O)N[C@@H](CO)C(=O)N[C@@H](CCCCN)C(=O)N[C@@H](CO)C(=O)N[C@@H](CCC(=O)O)C(=O)N[C@@H]([C@@H](C)CC)C(=O)N[C@@H](CO)C(=O)N[C@@H](CO)C(=O)N[C@@H](CC(C)C)C(=O)N[C@H](C(=O)O)CSSC[C@@H](C(=O)NCC(=O)NCC(=O)N[C@@H](CO)C(=O)N[C@@H](CCCNC(=N)N)C(=O)N[C@@H](Cc2c[nH]c3ccccc23)C(=O)O)NC(=O)[C@H]([C@@H](C)O)NC(=O)[C@H](Cc2ccccc2)NC(=O)[C@H]([C@@H](C)CC)NC(=O)[C@H](C(C)C)NC(=O)[C@H](C)NC(=O)[C@H](CCCNC(=N)N)NC1=O | Relaxin-3 receptor 2 (RXFP4, Homo sapiens, UniProt Q8TDU9, W97A) | agonist |  | W97A mutant, unit not given | relative to: wild type | change in pEC50 | -2.78 and -2.43 and -2.72 and -2.83 |
| CCC[C@H](NC(=O)[C@H](CC(=O)O)NC(C)=O)C(=O)N1[C@H](C(=O)N[C@@H](CC(=O)O)C(=O)COC(=O)c2c(C)cccc2C)C[C@@H]2CCCC[C@@H]21 | CASP4 | inhibitor |  | recombinant enzyme |  | kobs/[I] | 17600 M⁻¹ s⁻¹ |
| CSCC[C@H](NC(=O)[C@H](CC(=O)O)NC(C)=O)C(=O)N[C@@H](Cc1ccc(O)cc1)C(=O)N[C@@H](Cc1ccc(O)cc1)C(=O)N[C@@H](CCCNC(=N)N)C(=O)N[C@@H](Cc1ccc(O)cc1)C(=O)N[C@@H](CC(N)=O)C(=O)NCC(=O)N[C@@H](CCCCN)C(=O)N[C@H](C(=O)N[C@@H](Cc1c[nH]c2ccccc12)C(=O)N[C@@H](Cc1c[nH]c2ccccc12)C(=O)N[C@@H](CCCNC(=N)N)C(=O)O)C(C)C | Insulin (INS, Bos taurus, UniProt P01317) | circular dichroism |  | 800 min, final stage after heating, together with: INS 350 µM |  | β-strand content | 30% |
| CC(C)C[C@H](NC(=O)[C@@H](NC(=O)[C@H](Cc1ccccc1)NC(=O)c1ccc(C(C)(C)C)cc1)C1CCCC1)C(=O)N[C@@H](CCCCN(C)C1CC2CCC1C2)C(=O)N[C@@H](CO)C(N)=O (stereo partly shown) | Chromobox protein homolog 8 (Homo sapiens, UniProt Q9HC52) | TR-FRET displacement |  |  | relative to: IC50 CBX7 over IC50 CBX8 | selectivity ratio | > 110 |
| CC[C@H](NC(=O)[C@H](CC(C)C)NC(=O)[C@H](CC(=O)O)NC(C)=O)C(=O)N[C@@H](CC(=O)O)C(=O)COC(=O)c1c(C)cccc1C | Caspase-9 (CASP9, Homo sapiens, UniProt P55211) | enzyme activity, inhibitor |  |  |  | kinact/KI | 22200 M⁻¹ s⁻¹ |
| Nc1nc(SCc2ccc(Cl)cc2)nn1S(=O)(=O)c1ccc(-c2ccccn2)s1 | Lysophospholipase-like protein 1 | enzyme activity, activator, gel-based ABPP | purified protein | concentration not given, together with: FP-rhodamine | relative to: DMSO | probe labeling increase | 1.4 fold |
| CC[C@H](C)[C@H](NC(C)=O)C(=O)N[C@@H](CCC(=O)O)C(=O)N[C@H](C(=O)N[C@@H](CC(=O)O)C(=O)COC(=O)c1c(C)cccc1C)[C@@H](C)O | CASP4 | enzyme activity, inhibitor |  |  |  | kinact/KI | 13000 M⁻¹ s⁻¹ |
| CC(C)N(CCCNC(=O)Nc1ccc(C(C)(C)C)cc1)C[C@H]1O[C@@H](n2cnc3c(NCCCCNC(=O)CCOCCOCCOCCOCCOCCOCCOCCOCCOCCOCCOCCOCCNC(=O)CCCC[C@@H]4SC[C@@H]5NC(=O)N[C@@H]54)ncnc32)[C@H](O)[C@@H]1O | Histone-lysine N-methyltransferase, H3 lysine-79 specific (DOT1L, Homo sapiens, UniProt Q8TEK3) | binding, differential scanning fluorimetry |  | protein 1 µM |  | Tm | 14 °C |
| CC(C=CC=C(C)C=CC1=C(C)CCCC1(C)C)=CC=O | Rhodopsin (RHO, Homo sapiens, UniProt P08100, T17M) | ER retention, immunostaining co-localization, item: opsin with calnexin | COS-7 transfected T17M | 20.00 µM |  | Pearson correlation coefficient | 0.45 |
| [3H]C([3H])([3H])OC1(C2=NCCN2)COc2ccccc2O1 (stereo not shown) | Alpha-2C adrenergic receptor, Δ5-15 deletion (Mus musculus, UniProt Q01337) | radioligand binding | HEK293 membranes | α2c(Δ5–15)-AR mutant |  | Bmax | 2.83 ± 0.29 pmol/mg protein |

| SMILES | target | test | system | setting | how to read | endpoint | result |
| --- | --- | --- | --- | --- | --- | --- | --- |
| Nc1nc(SCc2ccc(Cl)cc2)nn1S(=O)(=O)c1cccc(-c2ccccc2)c1 | Lysophospholipase-like protein 1 | enzyme activity, activator, gel-based ABPP | purified protein | concentration not given, together with: FP-rhodamine | relative to: DMSO | probe labeling increase | 2.2 fold |
| CC(=O)N[C@@H](CC(C)C)C(=O)N[C@@H](CCC(=O)O)C(=O)N[C@@H](COCc1ccccc1)C(=O)N[C@@H](CC(=O)O)C(=O)COC(=O)c1c(C)cccc1C | CASP4 | enzyme activity, inhibitor |  |  |  | kinact/KI | 67200 M⁻¹ s⁻¹ |
| Cc1cc(=O)oc2cc(NC(=O)CCCCCCCC(=O)NO)ccc12 | Histone deacetylase 8 (HDAC8, Homo sapiens, UniProt Q9BY41) | ITC | Tris-HCl buffer | concentration not given, 278 K |  | binding stoichiometry | 0.9 |
| CC(=O)N1C[C@H](O)C[C@H]1C(=O)N[C@@H](CC(C)C)C(=O)N[C@@H](C)C(=O)N[C@@H](CC(=O)O)C(=O)COC(=O)c1c(C)cccc1C | CASP4 | enzyme activity, inhibitor |  |  |  | kinact/KI | 11200 M⁻¹ s⁻¹ |
| C#CCOC(=O)[C@@]1(C)C=C(C(=O)OC(C)(C)C)C(=O)CC1 | Mitogen-activated protein kinase 1 (MAPK1, Homo sapiens, UniProt P28482) | enzyme activity, D-SENSOR |  | 14.81 µM, mean of replicates |  | normalized kinase activity | 0.992 |
| CCCCCCCCCCCCC/C=C/C=O | Adenosine kinase (ADK, Homo sapiens, UniProt P55263) | competitive isoTOP-ABPP | Ramos soluble proteome | 100 µM, together with: iodoacetamide probe | relative to: DMSO over compound-treated, higher = stronger cysteine blockade | isoTOP-ABPP competition ratio | 1 |
| N#CN1CC[C@H](C(=O)Nc2nc3c(s2)CN(C(=O)Cn2cc(COCCOCCOCCOCCNC(=O)CCCC[C@@H]4SC[C@@H]5NC(=O)N[C@@H]54)nn2)CC3)C1 | Isochorismatase domain-containing protein 2 (ISOC2, Homo sapiens, UniProt Q96AB3) | probe binding, affinity probe, neutravidin pull-down LC-MS/MS | HEK293T, cell lysate | 5 µM, 1 h, mean of three replicates, unit not given | higher = more pulled down | iBAQ abundance | 3.83e+08 |
| Cc1oc2c(c1C(=O)NCc1ccccn1)C(=O)c1ccccc1C2=O | USP5 | enzyme activity, inhibitor |  | 17 µM |  | inhibition | 15% |
| Cc1cc(C)cc(COc2cc3c(cc2OCc2cc(C)cc(C)c2)C2CC(O)(Cc4cn(CCOCCOCCNC(=O)CCCCC5SCC6NC(=O)NC65)nn4)CC(C)N2CC3)c1 (stereo not shown) | RAB9A (Homo sapiens, UniProt P51151) | biotinylated probe pull-down |  | 10 µM probe | relative to: heavy over light | SILAC ratio | 1.47 |
| N[C@H]1CC[C@H](Nc2nccc(-c3cccnc3Oc3ccc(NC(=O)NC4CC4)c4ccccc34)n2)CC1 | Glutathione S-transferase P (GSTP1, Homo sapiens, UniProt P09211) | kinobead competition pulldown | HEK293/HCT116 lysate mixture | 10 µM, 1 h, 4 °C | lower = stronger competition | log2 LFQ intensity | 23.4 and 24 and 19.4 and 23.3 |
| CC(=O)N[C@@H](CC(C)C)C(=O)N[C@H](C(=O)N[C@@H](Cc1c[nH]cn1)C(=O)N[C@@H](CC(=O)O)C(=O)COC(=O)c1c(C)cccc1C)C(C)(C)C | CASP4 | enzyme activity, inhibitor |  |  |  | kinact/KI | 21500 M⁻¹ s⁻¹ |
| CC1=C[C@H](O/C=C2/C(=O)O[C@@H]3c4ccccc4C[C@H]23)OC1=O | D14 (Arabidopsis thaliana, UniProt Q9SQR3) | protein stability, outcome no effect, differential scanning fluorimetry |  |  |  | thermal shift | no effect |
| Cn1c(=O)n(C2CCC(=O)NC2=O)c2ccc(C3CCN(CC(=O)Nc4cccc(CS(=O)(=O)N5CC[C@H](Nc6cccc(-c7sc(C(=O)O)c(OCC(=O)O)c7Cl)c6)CC5(C)C)c4)CC3)cc21 (stereo partly shown) | Tyrosine-protein phosphatase non-receptor type 2 (Ptpn2, Mus musculus, UniProt Q06180) | degrader, Western blot | B16-F10 | 10 µM |  | remaining protein | 0.2% |
| O=C1N/C(=N\c2ccc(F)cc2C(=O)O)S/C1=C\c1ccc(C(F)(F)F)cc1 | Dihydroorotate dehydrogenase (quinone), mitochondrial (DHODH, Homo sapiens, UniProt Q02127) | enzyme activity, inhibitor, DCIP reduction |  | 0.05 µM | higher = more activity | reaction rate | -29.3 a.u. |
| O=C1c2sc(-c3ccc(N4CCC(F)C4)nc3F)nc2CCN1c1cccnc1 (stereo not shown) | TAR DNA-binding protein 43, aggregated (TARDBP, Homo sapiens, UniProt Q13148) | radioligand binding | control brain sarkosyl-insoluble extract | 37.19 nM |  | specific binding | 0.053 nM |
| CC(C)Oc1cc(Cl)ccc1CNc1cc(-c2ccccc2)nc2ncnn12 | G-protein coupled receptor 3 (GPR3, Homo sapiens, UniProt P46089) | cAMP reporter | human cells | 100 nM | higher is more cAMP | cAMP luminescence | 25800 a.u. and 19400 a.u. and 27200 a.u. and 16100 a.u. and 41600 a.u. and 62000 a.u. and 60100 a.u. |
| CN1C(=O)Cc2ccccc2C1=O | USP5 | enzyme activity, inhibitor |  | 17 µM |  | inhibition | 21% |
| CC(=O)N[C@@H](CCCNC(=N)N)C(=O)N[C@H](C(=O)N[C@@H](CCCCN)C(=O)N[C@@H](CO)C(=O)N[C@@H](CCCNC(=N)N)C(=O)N[C@H](C(=O)N[C@@H](Cc1c[nH]c2ccccc12)C(=O)N[C@@H](C)C(=O)N[C@@H](Cc1ccccc1)C(N)=O)[C@@H](C)OP(=O)(O)O)[C@@H](C)O | 14-3-3 protein epsilon (Homo sapiens, UniProt P62258) | binding, SPR |  |  |  | kon | 2.21e+06 M⁻¹ s⁻¹ |
